Measured values collected from several papers.
Every numbered part comes from another study and shows a few of its results, in no order.
Sequence of UniProt P07948 (whole entry, looked up): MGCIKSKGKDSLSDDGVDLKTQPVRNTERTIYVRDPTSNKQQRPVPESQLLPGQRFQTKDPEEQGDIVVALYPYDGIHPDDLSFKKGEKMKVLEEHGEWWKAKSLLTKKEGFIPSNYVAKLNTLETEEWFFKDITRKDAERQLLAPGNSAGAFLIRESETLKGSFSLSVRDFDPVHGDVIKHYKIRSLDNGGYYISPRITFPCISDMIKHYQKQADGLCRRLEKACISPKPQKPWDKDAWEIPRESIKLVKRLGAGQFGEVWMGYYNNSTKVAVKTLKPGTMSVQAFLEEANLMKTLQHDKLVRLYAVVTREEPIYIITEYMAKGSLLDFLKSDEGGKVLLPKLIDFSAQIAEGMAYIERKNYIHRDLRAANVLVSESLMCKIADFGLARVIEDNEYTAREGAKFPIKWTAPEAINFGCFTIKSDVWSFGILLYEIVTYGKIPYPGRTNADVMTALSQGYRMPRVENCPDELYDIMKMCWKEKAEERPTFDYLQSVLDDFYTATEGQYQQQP
Sequence of UniProt P35626 (whole entry, looked up): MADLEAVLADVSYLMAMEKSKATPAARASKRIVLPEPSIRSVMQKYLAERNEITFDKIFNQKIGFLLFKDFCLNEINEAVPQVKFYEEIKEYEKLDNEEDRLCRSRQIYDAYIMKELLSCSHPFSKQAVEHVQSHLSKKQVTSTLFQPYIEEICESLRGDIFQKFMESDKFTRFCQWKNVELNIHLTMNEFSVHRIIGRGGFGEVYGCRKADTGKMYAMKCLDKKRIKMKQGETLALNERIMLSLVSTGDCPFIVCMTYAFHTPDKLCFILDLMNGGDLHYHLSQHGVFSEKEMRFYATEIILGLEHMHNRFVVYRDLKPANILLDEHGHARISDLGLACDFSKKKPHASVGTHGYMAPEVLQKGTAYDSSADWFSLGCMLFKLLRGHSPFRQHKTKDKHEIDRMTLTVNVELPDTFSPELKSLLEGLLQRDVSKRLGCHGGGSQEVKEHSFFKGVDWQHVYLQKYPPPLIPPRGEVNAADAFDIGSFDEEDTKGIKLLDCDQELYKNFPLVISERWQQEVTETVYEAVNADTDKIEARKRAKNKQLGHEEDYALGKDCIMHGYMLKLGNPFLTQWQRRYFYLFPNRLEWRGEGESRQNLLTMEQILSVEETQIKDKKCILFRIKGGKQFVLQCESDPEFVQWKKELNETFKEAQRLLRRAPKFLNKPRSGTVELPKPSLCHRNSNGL
Sequence of UniProt P54760 (whole entry, looked up): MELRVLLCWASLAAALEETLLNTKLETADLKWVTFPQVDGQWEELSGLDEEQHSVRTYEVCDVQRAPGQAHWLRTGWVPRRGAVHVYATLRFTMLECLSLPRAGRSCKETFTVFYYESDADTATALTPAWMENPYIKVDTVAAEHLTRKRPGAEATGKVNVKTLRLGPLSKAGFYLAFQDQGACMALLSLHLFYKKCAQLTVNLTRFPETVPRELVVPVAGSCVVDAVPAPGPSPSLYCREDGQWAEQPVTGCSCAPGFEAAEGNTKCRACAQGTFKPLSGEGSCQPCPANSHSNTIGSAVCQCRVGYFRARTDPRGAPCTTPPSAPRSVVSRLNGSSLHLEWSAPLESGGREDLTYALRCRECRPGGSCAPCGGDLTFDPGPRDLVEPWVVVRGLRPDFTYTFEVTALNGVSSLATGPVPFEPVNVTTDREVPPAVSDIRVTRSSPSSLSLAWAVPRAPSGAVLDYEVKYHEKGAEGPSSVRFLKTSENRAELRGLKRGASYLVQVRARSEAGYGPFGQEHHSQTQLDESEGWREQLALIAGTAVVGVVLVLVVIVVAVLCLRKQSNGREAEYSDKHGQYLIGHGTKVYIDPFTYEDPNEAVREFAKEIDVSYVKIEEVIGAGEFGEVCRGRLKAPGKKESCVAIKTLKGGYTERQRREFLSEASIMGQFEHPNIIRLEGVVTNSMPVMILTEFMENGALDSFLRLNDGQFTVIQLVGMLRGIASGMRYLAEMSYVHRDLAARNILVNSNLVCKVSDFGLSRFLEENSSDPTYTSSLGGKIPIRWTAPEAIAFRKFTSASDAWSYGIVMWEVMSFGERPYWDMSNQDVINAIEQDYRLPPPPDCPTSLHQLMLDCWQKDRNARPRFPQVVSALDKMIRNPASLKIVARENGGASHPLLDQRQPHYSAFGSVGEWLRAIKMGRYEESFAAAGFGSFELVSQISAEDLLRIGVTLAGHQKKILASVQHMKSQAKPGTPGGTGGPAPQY
Sequence of UniProt Q15746 (whole entry, looked up): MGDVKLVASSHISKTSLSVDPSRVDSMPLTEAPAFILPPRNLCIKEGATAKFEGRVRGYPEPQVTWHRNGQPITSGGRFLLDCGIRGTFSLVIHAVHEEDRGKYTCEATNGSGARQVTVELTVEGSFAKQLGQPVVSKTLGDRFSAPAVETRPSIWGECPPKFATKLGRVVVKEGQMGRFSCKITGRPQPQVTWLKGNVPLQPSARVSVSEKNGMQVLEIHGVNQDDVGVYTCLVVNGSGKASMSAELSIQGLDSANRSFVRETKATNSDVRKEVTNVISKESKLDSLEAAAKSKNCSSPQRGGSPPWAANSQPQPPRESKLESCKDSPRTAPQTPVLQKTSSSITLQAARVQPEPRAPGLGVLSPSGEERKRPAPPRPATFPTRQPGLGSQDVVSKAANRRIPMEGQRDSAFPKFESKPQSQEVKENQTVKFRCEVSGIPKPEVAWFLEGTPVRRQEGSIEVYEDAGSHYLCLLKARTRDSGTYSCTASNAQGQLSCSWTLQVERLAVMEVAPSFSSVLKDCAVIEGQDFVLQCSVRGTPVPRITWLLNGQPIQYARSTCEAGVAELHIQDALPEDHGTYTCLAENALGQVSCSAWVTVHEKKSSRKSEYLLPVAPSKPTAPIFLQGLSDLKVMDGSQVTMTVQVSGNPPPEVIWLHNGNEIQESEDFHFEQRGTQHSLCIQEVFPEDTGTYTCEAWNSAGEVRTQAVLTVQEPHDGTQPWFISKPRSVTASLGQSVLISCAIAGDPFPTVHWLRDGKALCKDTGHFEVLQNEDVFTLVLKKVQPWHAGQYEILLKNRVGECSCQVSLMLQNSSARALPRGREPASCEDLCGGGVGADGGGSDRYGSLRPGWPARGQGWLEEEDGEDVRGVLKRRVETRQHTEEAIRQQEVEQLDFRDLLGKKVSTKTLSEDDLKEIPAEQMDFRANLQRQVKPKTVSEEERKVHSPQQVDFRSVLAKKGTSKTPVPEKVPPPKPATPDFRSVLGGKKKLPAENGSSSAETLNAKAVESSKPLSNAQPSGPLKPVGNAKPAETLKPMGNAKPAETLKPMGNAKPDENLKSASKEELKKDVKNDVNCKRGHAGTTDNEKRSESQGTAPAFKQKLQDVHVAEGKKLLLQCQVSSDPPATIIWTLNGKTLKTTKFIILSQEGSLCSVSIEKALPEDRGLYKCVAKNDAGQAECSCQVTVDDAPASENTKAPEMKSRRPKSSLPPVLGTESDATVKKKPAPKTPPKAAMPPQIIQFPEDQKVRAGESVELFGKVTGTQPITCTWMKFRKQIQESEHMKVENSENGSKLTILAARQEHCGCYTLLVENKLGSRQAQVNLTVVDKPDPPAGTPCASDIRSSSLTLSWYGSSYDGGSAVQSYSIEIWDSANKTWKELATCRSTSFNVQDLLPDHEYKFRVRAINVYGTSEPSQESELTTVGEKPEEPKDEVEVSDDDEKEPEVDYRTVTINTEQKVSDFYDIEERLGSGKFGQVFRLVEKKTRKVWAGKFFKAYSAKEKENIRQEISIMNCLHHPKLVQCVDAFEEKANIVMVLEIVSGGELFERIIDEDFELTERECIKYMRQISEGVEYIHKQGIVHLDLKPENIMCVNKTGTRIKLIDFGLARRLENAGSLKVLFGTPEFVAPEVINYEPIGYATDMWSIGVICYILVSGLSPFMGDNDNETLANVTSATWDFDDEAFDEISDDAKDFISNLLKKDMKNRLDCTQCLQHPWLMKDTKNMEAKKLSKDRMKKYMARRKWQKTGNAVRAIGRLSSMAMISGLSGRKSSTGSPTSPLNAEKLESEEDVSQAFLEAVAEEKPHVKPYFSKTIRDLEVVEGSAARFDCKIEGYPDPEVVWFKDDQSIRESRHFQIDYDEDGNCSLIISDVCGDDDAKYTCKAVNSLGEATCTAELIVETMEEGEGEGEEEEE
Sequence of UniProt Q13557 (whole entry, looked up): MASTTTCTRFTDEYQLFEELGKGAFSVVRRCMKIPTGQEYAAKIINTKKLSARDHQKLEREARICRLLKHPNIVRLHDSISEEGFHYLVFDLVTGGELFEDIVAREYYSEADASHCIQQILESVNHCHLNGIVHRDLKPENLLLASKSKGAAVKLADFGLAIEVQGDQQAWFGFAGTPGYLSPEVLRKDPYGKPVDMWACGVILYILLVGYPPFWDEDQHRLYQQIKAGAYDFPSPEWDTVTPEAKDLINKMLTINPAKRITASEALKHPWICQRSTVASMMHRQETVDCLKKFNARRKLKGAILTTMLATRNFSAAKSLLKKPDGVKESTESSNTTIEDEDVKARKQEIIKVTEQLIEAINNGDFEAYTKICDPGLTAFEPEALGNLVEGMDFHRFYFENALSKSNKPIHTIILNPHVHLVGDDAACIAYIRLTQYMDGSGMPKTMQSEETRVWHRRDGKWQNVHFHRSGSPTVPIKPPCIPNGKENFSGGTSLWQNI
Sequence of UniProt Q6PHR2 (whole entry, looked up): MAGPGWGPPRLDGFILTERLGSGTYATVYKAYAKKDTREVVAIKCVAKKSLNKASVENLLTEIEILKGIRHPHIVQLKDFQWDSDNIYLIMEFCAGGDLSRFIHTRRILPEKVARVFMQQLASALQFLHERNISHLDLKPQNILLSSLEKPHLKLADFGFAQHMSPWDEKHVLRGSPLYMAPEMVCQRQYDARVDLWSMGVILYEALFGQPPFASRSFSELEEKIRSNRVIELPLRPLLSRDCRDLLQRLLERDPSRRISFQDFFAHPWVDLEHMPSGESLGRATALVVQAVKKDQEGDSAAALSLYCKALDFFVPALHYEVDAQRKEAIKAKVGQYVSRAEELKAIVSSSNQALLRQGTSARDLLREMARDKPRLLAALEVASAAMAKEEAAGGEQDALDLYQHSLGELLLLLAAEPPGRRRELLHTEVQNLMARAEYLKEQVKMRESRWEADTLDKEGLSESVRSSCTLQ

Sample 1 — Structure (SMILES): CC(C)(O)c1cncc(-c2nc3ccc(F)cc3n2C2CC2)c1; read-out: cell-free assay; technique: competition with immobilised ligand; tested at: 1 µM
target | remaining binding [%]
MAPK13 (Homo sapiens, UniProt O15264) | 100
GRK3 (Homo sapiens, UniProt P35626) | 79
TSSK3 (Homo sapiens, UniProt Q96PN8) | 84
NIM1K (Homo sapiens, UniProt Q8IY84) | 100
PIK3CG (Homo sapiens, UniProt P48736) | 77
PIK3CA (Homo sapiens, UniProt P42336) | 100
EPHB4 (Homo sapiens, UniProt P54760) | 100
Tyrosine-protein kinase ABL1, phosphorylated (ABL1, Homo sapiens, UniProt P00519, F317L) | 100
COQ8B (Homo sapiens, UniProt Q96D53) | 100
PRKAA2 (Homo sapiens, UniProt P54646) | 100
PIM2 (Homo sapiens, UniProt Q9P1W9) | 100
PDPK1 (Homo sapiens, UniProt O15530) | 97
IRAK1 (Homo sapiens, UniProt P51617) | 100
MAPK12 (Homo sapiens, UniProt P53778) | 88
STK25 (Homo sapiens, UniProt O00506) | 100
ITK (Homo sapiens, UniProt Q08881) | 100
ERBB2 (Homo sapiens, UniProt P04626) | 100
MAP4K4 (Homo sapiens, UniProt O95819) | 72
STK26 (Homo sapiens, UniProt Q9P289) | 100
CDK16 (Homo sapiens, UniProt Q00536) | 100
GRK7 (Homo sapiens, UniProt Q8WTQ7) | 86
MAPK7 (Homo sapiens, UniProt Q13164) | 100
EPHA6 (Homo sapiens, UniProt Q9UF33) | 100
HUNK (Homo sapiens, UniProt P57058) | 100
TIE1 (Homo sapiens, UniProt P35590) | 100

Sample 2 — read-out: enzyme activity; action: inhibitor; tested at: 1 µM
Structure (SMILES): CC(C)S(=O)(=O)c1ccc2nccc(Nc3ccc4sc(C5CCCC5)nc4c3)c2c1
target | activity vs control [%]
PDGFRA (Homo sapiens, UniProt P16234) | 112
MYLK (Homo sapiens, UniProt Q15746) | 95
STK35 (Homo sapiens, UniProt Q8TDR2) | 99.5
MAPKAPK2 (Homo sapiens, UniProt P49137) | 89
GRK2 (Homo sapiens, UniProt P25098) | 93.5
TNIK (Homo sapiens, UniProt Q9UKE5) | 88
NEK6 (Homo sapiens, UniProt Q9HC98) | 94
ULK3 (Homo sapiens, UniProt Q6PHR2) | 92
CLK4 (Homo sapiens, UniProt Q9HAZ1) | 93
LYN (Homo sapiens, UniProt P07948) | 95
EPHB4 (Homo sapiens, UniProt P54760) | 108
LATS2 (Homo sapiens, UniProt Q9NRM7) | 117
CSNK2A1 (Homo sapiens, UniProt P68400) | 94

Sample 3 — Structure (SMILES): CCN(c1nc(N)c(C(=O)N=C(N)N)nc1Cl)C(C)C; read-out: β-arrestin recruitment; action: agonist; technique: PRESTO-Tango; tested at: 10 µM; reference: untreated
target | fold over basal
Mas-related G-protein coupled receptor MRG (MAS1L, Homo sapiens, UniProt P35410) | 0.81
GPR39 (Homo sapiens, UniProt O43194) | 0.89
Probable G-protein coupled receptor 174 (Homo sapiens, UniProt Q9BXC1) | 0.85
ADGRG2 (Homo sapiens, UniProt Q8IZP9) | 0.99
Metabotropic glycine receptor (GPR158, Homo sapiens, UniProt Q5T848) | 0.82
ADRA1A (Homo sapiens, UniProt P35348) | 0.79
PTGDR2 (Homo sapiens, UniProt Q9Y5Y4) | 0.98
CRHR2 (Homo sapiens, UniProt Q13324) | 0.91
HCRTR2 (Homo sapiens, UniProt O43614) | 0.85 fold
Putative adhesion G protein-coupled receptor F2P (ADGRF2P, Homo sapiens, UniProt Q8IZF7) | 0.71
GPR4 (Homo sapiens, UniProt P46093) | 1.42
NPBWR2 (Homo sapiens, UniProt P48146) | 1.12
Probable G-protein coupled receptor 150 (GPR150, Homo sapiens, UniProt Q8NGU9) | 1.54

Sample 4 — read-out: enzyme activity; action: inhibitor; tested at: 0.5 µM; reference: control
SMILES: CC#CC(=O)Nc1cc2c(Nc3ccc(F)c(Cl)c3)ncnc2cn1
target | remaining activity
STK39 (Homo sapiens, UniProt Q9UEW8) | 91.3%
OXSR1 (Homo sapiens, UniProt O95747) | 109%
DAPK1 (Homo sapiens, UniProt P53355) | 94.7%
STK10 (Homo sapiens, UniProt O94804) | 72.6%
STK11 (Homo sapiens, UniProt Q15831) | 99.6%
TGFBR2 (Homo sapiens, UniProt P37173) | 123%
Cyclin-dependent kinase 4, with cyclin D1 (CDK4, Homo sapiens, UniProt P11802) | 98.6%
CAMKK2 (Homo sapiens, UniProt Q96RR4) | 103%
MAP3K3 (Homo sapiens, UniProt Q99759) | 107%
Cyclin-dependent kinase 5, with p25 (CDK5, Homo sapiens, UniProt Q00535) | 99.2%
TGFBR1 (Homo sapiens, UniProt P36897) | 98.7%
CHEK2 (Homo sapiens, UniProt O96017) | 98.8%
IKBKE (Homo sapiens, UniProt Q14164) | 98.9%
DAPK2 (Homo sapiens, UniProt Q9UIK4) | 105%
Protein kinase C beta type, isoform beta-I (PRKCB, Homo sapiens, UniProt P05771) | 97.4%
PRKACA (Homo sapiens, UniProt P17612) | 97.7%
cGMP-dependent protein kinase 1, isoform beta (PRKG1, Homo sapiens, UniProt Q13976) | 91.7%
GRK3 (Homo sapiens, UniProt P35626) | 103%
PRKCA (Homo sapiens, UniProt P17252) | 101%
IKBKB (Homo sapiens, UniProt O14920) | 102%
Tyrosine-protein kinase Lyn, isoform B (LYN, Homo sapiens, UniProt P07948) | 96.1%
MAPK9 (Homo sapiens, UniProt P45984) | 91.8%
NEK2 (Homo sapiens, UniProt P51955) | 103%
CAMK2D (Homo sapiens, UniProt Q13557) | 100%

For quick reference, copied from above (sample 2):
target | activity vs control [%]
STK35 (Homo sapiens, UniProt Q8TDR2) | 99.5
LYN (Homo sapiens, UniProt P07948) | 95
TNIK (Homo sapiens, UniProt Q9UKE5) | 88
ULK3 (Homo sapiens, UniProt Q6PHR2) | 92
LATS2 (Homo sapiens, UniProt Q9NRM7) | 117
